Experimental data gathered from unrelated publications.
Numbered parts are unrelated; each lists some results of a single study.
UniProt P11802, sequence (whole entry, looked up): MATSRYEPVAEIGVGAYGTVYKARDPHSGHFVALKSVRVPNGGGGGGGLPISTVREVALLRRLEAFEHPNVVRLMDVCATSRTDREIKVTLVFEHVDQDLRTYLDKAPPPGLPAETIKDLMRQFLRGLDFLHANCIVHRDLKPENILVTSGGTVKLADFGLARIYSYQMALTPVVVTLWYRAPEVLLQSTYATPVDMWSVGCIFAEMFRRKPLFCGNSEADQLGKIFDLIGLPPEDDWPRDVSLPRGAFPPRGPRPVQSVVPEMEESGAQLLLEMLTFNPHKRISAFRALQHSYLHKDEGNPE
UniProt P37173, sequence (whole entry, looked up): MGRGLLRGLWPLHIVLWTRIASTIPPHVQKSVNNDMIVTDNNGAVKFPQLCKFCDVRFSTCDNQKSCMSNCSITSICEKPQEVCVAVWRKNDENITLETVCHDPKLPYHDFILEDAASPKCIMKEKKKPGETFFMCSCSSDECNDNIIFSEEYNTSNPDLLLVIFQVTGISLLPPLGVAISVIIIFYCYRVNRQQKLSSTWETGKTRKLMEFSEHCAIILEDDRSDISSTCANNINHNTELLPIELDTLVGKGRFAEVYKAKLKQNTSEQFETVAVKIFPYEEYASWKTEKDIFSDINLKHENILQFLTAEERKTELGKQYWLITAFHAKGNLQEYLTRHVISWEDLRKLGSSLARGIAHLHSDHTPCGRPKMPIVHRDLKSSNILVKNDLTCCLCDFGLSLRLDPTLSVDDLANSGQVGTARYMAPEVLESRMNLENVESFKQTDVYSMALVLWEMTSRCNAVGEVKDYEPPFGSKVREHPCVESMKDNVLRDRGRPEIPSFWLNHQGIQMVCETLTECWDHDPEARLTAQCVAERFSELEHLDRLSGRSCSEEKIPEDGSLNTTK
UniProt O14920, sequence (whole entry, looked up): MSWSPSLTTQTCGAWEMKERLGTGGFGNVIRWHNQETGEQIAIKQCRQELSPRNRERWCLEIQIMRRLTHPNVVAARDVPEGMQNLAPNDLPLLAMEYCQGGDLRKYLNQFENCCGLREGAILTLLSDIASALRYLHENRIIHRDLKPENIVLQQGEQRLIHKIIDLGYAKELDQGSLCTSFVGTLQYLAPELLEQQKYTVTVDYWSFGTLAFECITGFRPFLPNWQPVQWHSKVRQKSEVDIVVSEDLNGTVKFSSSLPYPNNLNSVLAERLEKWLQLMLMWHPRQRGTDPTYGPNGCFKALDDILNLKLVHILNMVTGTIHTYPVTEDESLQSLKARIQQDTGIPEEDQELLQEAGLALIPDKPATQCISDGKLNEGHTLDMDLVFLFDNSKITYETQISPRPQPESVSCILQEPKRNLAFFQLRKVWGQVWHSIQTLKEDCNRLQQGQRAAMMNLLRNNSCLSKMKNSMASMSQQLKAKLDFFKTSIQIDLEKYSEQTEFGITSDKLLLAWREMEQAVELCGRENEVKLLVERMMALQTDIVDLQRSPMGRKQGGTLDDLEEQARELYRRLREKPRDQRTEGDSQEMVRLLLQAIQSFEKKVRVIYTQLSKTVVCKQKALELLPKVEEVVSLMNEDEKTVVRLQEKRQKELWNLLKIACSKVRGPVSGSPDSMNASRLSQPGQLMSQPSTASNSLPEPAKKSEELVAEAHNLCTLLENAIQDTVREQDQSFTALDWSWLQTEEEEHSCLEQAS
UniProt Q9UIK4, sequence (whole entry, looked up): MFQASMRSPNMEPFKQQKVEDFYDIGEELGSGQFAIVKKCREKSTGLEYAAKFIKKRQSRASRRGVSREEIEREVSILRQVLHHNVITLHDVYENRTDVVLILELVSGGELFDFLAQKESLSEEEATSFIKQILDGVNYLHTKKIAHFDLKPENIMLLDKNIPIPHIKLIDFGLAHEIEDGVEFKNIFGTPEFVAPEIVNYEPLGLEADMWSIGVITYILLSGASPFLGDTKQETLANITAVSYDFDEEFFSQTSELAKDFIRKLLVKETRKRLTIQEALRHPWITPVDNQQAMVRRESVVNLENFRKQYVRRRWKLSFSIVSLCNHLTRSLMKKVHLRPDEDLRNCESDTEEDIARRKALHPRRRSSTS
UniProt O75385, sequence (whole entry, looked up): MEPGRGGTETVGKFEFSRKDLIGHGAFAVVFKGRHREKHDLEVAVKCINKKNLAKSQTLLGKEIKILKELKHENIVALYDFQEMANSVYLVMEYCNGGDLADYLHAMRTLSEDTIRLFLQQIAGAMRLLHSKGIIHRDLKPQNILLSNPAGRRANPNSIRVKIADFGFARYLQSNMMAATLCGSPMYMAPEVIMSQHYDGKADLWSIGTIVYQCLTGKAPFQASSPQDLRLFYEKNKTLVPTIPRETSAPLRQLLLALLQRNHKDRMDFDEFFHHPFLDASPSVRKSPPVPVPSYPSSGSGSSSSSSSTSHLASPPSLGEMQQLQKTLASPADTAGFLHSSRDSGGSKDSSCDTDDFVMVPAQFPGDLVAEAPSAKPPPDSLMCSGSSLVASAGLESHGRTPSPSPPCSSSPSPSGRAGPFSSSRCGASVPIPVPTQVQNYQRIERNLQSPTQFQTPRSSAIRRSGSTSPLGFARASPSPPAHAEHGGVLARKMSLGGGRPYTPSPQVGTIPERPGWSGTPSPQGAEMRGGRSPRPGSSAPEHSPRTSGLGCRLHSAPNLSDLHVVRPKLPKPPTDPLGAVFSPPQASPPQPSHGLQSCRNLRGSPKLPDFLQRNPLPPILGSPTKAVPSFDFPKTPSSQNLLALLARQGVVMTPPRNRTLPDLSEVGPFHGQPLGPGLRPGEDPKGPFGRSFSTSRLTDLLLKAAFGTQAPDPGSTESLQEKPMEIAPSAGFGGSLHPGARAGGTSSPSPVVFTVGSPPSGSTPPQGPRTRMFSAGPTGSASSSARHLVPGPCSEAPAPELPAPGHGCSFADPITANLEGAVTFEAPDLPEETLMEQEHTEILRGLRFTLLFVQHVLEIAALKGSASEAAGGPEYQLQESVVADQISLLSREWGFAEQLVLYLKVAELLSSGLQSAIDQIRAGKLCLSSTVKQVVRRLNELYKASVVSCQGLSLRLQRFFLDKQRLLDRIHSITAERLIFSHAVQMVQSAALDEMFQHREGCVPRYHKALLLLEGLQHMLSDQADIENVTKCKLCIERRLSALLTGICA
UniProt P04629, sequence (whole entry, looked up): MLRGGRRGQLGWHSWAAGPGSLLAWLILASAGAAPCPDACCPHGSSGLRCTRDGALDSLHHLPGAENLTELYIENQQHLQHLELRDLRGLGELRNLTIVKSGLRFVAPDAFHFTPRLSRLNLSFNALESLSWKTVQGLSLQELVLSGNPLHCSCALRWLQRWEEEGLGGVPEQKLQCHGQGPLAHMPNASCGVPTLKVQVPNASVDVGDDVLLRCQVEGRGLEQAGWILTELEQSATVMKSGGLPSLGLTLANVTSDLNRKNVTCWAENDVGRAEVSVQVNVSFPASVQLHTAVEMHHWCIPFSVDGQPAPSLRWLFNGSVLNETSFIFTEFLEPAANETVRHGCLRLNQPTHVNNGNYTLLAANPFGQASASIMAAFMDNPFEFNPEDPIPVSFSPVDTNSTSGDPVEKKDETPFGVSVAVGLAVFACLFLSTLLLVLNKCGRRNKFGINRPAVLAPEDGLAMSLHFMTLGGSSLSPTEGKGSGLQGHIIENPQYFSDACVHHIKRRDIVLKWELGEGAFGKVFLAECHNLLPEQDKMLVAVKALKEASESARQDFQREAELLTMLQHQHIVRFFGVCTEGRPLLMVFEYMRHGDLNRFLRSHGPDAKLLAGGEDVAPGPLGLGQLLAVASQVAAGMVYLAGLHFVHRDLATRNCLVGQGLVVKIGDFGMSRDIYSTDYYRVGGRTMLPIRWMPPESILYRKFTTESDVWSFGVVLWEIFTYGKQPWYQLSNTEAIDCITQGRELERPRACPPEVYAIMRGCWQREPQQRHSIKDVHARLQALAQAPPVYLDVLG
UniProt O15075, sequence (whole entry, looked up): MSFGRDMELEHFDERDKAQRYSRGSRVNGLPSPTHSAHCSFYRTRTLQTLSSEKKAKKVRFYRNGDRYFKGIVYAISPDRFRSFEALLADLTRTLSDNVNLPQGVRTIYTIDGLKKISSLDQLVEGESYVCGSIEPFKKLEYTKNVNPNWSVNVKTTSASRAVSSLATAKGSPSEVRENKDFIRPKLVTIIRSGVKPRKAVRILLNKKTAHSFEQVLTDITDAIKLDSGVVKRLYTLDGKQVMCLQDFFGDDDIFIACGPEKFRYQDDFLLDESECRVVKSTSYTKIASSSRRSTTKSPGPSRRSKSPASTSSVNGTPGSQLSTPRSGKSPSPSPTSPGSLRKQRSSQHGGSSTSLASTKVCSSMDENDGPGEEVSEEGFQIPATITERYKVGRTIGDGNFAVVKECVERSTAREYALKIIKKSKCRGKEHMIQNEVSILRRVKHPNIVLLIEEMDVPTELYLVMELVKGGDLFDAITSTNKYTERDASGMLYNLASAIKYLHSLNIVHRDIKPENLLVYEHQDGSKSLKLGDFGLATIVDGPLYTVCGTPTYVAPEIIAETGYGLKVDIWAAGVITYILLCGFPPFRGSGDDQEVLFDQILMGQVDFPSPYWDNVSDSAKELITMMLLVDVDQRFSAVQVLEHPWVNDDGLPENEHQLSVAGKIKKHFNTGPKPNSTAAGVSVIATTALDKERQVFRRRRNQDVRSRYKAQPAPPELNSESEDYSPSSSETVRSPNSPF
UniProt Q14012, sequence (whole entry, looked up): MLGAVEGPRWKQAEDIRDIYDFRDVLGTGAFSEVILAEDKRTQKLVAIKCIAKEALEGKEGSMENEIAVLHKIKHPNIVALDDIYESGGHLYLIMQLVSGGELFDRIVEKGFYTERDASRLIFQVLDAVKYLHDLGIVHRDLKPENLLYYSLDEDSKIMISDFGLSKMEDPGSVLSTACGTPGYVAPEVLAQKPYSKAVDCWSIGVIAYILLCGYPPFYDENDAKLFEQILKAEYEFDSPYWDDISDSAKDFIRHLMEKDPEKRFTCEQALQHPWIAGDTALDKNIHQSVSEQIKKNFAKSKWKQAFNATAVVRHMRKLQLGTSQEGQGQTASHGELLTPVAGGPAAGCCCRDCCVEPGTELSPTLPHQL

Set 1
SMILES: CC(C)n1cnc(-c2ccc(F)cc2)c1-c1ncc(C(=O)Nc2ccc(N3CCN(C)CC3)cc2)[nH]1
Method: phase 2a trial
Species: idiopathic pulmonary fibrosis patients
| conditions | patients with nausea [%] |
| --- | --- |
| 30 mg once daily, grade 5 emergent event | 0 |
| 30 mg once daily, grade 1 emergent event | 0 |
| all arms, grade 3 emergent event | 0 |
| 30 mg once daily, grade 4 emergent event | 0 |

Set 2
Species: human
Medium: microsomes or S9
Concentration: 2 µM
Time: 0.5 h
| SMILES | remaining compound |
| --- | --- |
| COC(=O)CNC(=O)C(C)NC(=O)/C=C/c1cc(-n2nc(C)n(C(F)F)c2=O)c(F)cc1Cl (stereo not drawn) | 51.5% |
| Clc1ccc(-c2cn3c4ccccc4n(CCN4CCCCC4)c3n2)cc1Cl | 6.67% |
| CCn1nc(C)c(CNc2nc(N)nc3nc[nH]c23)n1 | > 100% |
| O=c1c(C2CCCCC2)c(O)nc2n1CC(O)CS2 (stereo not drawn) | 62.6% |

Set 3
Structure (SMILES): O=C1c2ccccc2-c2nc3nnnn3nc21
Effect on: enzyme activity
Mode: inhibitor
Concentration: 0.5 µM
Reference: control
| target | remaining activity |
| --- | --- |
| Protein kinase C beta type, isoform beta-I (PRKCB, Homo sapiens, UniProt P05771) | 83.1% |
| Calcium/calmodulin-dependent protein kinase type II subunit delta (CAMK2D, Homo sapiens, UniProt Q13557) | 93% |
| Tyrosine-protein kinase Lyn, isoform B (LYN, Homo sapiens, UniProt P07948) | 40.1% |
| cGMP-dependent protein kinase 1, isoform beta (PRKG1, Homo sapiens, UniProt Q13976) | 133% |
| cAMP-dependent protein kinase catalytic subunit alpha (PRKACA, Homo sapiens, UniProt P17612) | 76.6% |
| Inhibitor of nuclear factor kappa-B kinase subunit beta (IKBKB, Homo sapiens, UniProt O14920) | 73.4% |
| Death-associated protein kinase 2 (DAPK2, Homo sapiens, UniProt Q9UIK4) | 83.4% |
| Mitogen-activated protein kinase 9 (MAPK9, Homo sapiens, UniProt P45984) | 51.9% |
| G protein-coupled receptor kinase 3 (GRK3, Homo sapiens, UniProt P35626) | 106% |
| Death-associated protein kinase 1 (DAPK1, Homo sapiens, UniProt P53355) | 92.2% |
| Serine/threonine-protein kinase 10 (STK10, Homo sapiens, UniProt O94804) | 84.3% |
| Mitogen-activated protein kinase kinase kinase 3 (MAP3K3, Homo sapiens, UniProt Q99759) | 134% |
| Cyclin-dependent kinase 5, with p25 (CDK5, Homo sapiens, UniProt Q00535) | 46.4% |
| TGF-beta receptor type-2 (TGFBR2, Homo sapiens, UniProt P37173) | 93.4% |
| Protein kinase C alpha type (PRKCA, Homo sapiens, UniProt P17252) | 91.4% |
| Serine/threonine-protein kinase OSR1 (OXSR1, Homo sapiens, UniProt O95747) | 83% |
| Serine/threonine-protein kinase STK11 (STK11, Homo sapiens, UniProt Q15831) | 99.1% |
| Serine/threonine-protein kinase Chk2 (CHEK2, Homo sapiens, UniProt O96017) | 54.7% |
| Calcium/calmodulin-dependent protein kinase kinase 2 (CAMKK2, Homo sapiens, UniProt Q96RR4) | 76.9% |
| Cyclin-dependent kinase 4, with cyclin D1 (CDK4, Homo sapiens, UniProt P11802) | 59.9% |
| STE20/SPS1-related proline-alanine-rich protein kinase (STK39, Homo sapiens, UniProt Q9UEW8) | 89.2% |
| Inhibitor of nuclear factor kappa-B kinase subunit epsilon (IKBKE, Homo sapiens, UniProt Q14164) | 89.2% |

Set 4
SMILES: CCCCN(CCCC)C(=O)CN1C[C@@H](c2cc(OC)c3c(c2)OCO3)[C@H](C(=O)O)[C@H]1CC(C)(C)CCC
Effect on: cell-free assay
Method: competition with immobilised ligand
Concentration: 1 µM
| target | remaining binding |
| --- | --- |
| Leucine-rich repeat serine/threonine-protein kinase 2 (LRRK2, Homo sapiens, UniProt Q5S007) | 65.9% |
| Tyrosine-protein kinase receptor UFO (AXL, Homo sapiens, UniProt P30530) | 87.2% |
| Tyrosine-protein kinase ABL1, phosphorylated (ABL1, Homo sapiens, UniProt P00519) | 100% |
| Dual specificity tyrosine-phosphorylation-regulated kinase 1A (DYRK1A, Homo sapiens, UniProt Q13627) | 96.3% |
| Serine/threonine-protein kinase 4 (STK4, Homo sapiens, UniProt Q13043) | 94.4% |
| Calcium/calmodulin-dependent protein kinase type 1 (CAMK1, Homo sapiens, UniProt Q14012) | 100% |
| Receptor-type tyrosine-protein kinase FLT3 (FLT3, Homo sapiens, UniProt P36888, F691L/ITD) | 99.1% |
| Leukocyte tyrosine kinase receptor (LTK, Homo sapiens, UniProt P29376) | 94.1% |
| Serine/threonine-protein kinase DCLK1 (DCLK1, Homo sapiens, UniProt O15075) | 81.5% |
| Dual specificity protein kinase CLK1 (CLK1, Homo sapiens, UniProt P49759) | 100% |
| Cyclin-dependent kinase 4, with cyclin D1 (CDK4, Homo sapiens, UniProt P11802) | 100% |
| High affinity nerve growth factor receptor (NTRK1, Homo sapiens, UniProt P04629) | 86.7% |
| Ephrin type-B receptor 6 (EPHB6, Homo sapiens, UniProt O15197) | 87.7% |
| TGF-beta receptor type-2 (TGFBR2, Homo sapiens, UniProt P37173) | 98.6% |
| Serine/threonine-protein kinase ULK1 (ULK1, Homo sapiens, UniProt O75385) | 89.2% |

For quick reference, copied from above (set 2):
| SMILES | remaining compound |
| --- | --- |
| Clc1ccc(-c2cn3c4ccccc4n(CCN4CCCCC4)c3n2)cc1Cl | 6.67% |
| O=c1c(C2CCCCC2)c(O)nc2n1CC(O)CS2 (stereo not drawn) | 62.6% |
| CCn1nc(C)c(CNc2nc(N)nc3nc[nH]c23)n1 | > 100% |
| COC(=O)CNC(=O)C(C)NC(=O)/C=C/c1cc(-n2nc(C)n(C(F)F)c2=O)c(F)cc1Cl (stereo not drawn) | 51.5% |
